Results from different studies.
A part holds a random share of what one study measured. Values joined by “and” are separate records of one study, mostly repeats; a detail may differ.

Study 1 — method: RNA Bind-n-Seq; molecule type: RNA; matrix: in vitro; concentration: 100 nM; reference: input RNA pool; direction: higher = stronger binding
Target: RING finger protein unkempt homolog, zinc fingers 1-6, SBP tag (UNK, Homo sapiens, UniProt Q9C0B0, residues 30-357)
Chain of UniProt Q9C0B0 (30-357, looked up): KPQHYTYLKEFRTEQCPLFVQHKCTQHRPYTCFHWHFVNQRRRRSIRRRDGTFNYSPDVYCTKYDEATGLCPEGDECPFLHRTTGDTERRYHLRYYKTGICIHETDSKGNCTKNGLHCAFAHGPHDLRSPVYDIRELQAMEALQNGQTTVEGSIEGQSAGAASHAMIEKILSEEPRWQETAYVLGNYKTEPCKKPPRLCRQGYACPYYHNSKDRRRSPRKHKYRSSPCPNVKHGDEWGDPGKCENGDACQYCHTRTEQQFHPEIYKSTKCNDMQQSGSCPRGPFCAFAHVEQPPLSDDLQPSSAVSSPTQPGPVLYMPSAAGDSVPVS
Notes: RNA with constant flanks, vertebrate orthologous sites, ends assumed
Shared flanks, not repeated: GGGAGUUCUACAGUCCGACGAUC … CAACAGAGGAUUGAGCAUCA
Oligonucleotide	bound/input enrichment
AGAUUGGGACCUUGGAGCAGAAUGAGAAGUUUGCAAAAGUAAAGCAAGCUUGUAAAAUUAUACCAUAUGCAGCUGCACAGUGGUACUUACCACUAGCAACUGUAUUAAAGCAUUUAUGAA	0.555 ratio
AAAUGAGCUGCUAGGGCAGUAAGAUGGGUUCCCUUUCACCCCUCAAGGAAAAAACCCGAACGGAUUCCUUAACCAUCUAAGUAGACUACCAUAGGUUAGCUUUUCUGGGUAUUUUUGUUA	0.289 ratio
UCAUCUCUUUUUAUAUGUCAAAAAAUGGCUUUGAAUUUUUAAACAAUUGCUAGUUUUAAUUAGCUCUGCUGUCAUGAAGUAUUGUUAUAGUUCGCCACAAAUAUAUCUCUGAAUUACUUC	0.551 ratio
AGCAACUCAAGGAUUCAGGACAAGUUUCACAAAUAUACCAAGUAGAUAUGGAACCAACAAUAGAAUUGGACAGCCAAGACCGUGAUGUACUCCAGUGUAACUUAUUUUUAUGAGGAAUUU	0.368 ratio
ACUAAUUCCAGAGUAGUAUAUGUUUCAUAAAGAGAAGUCUUUAUAAUUUUGUUUGUCAUAUAGUAUUUUGGAAUUUGUAUAAUGAGGAUGUUUAGUAGCCAUAUCUCAAUGGCUUUUUUA	0.579 ratio
AUGGCACGCCCUGUGAGAGGGAGUGGGGGAAGCCCAGGAUGACCCUCAGUUGUUCCAAUCCAGUAUUUUUUCCUUUAAAAAAAAAUUACUGUAUUUAUUAUGACGAUGGUGACUCCCCAG	0.259 ratio
UUCAGGCACAGUUAACCAGCUCUCAGCAUUCCUUACAAAGUUACCUAACCAGUACAAGUGGAGUUAGUUUUCAGGAUACAUCAAGGCAGUCAUCAUUGCCUUGCAGUCCUAUUGGAGAUG	0.423 ratio
CUCUCUGAGCGAUAGUAUUCCAUCUGUAGCAGAUUCACACUCCAGCCAUUUCUCUGAGUUCAGUUGCUCAGAUAUGGAAAGUAUGAAAACUUCCUGUAGCCAUGGUUCCAGCGACUACCA	0.403 ratio

Study 2 — cell line: HEK-293T/ACE2; concentration: 10 µM; time: 16 h; reference: vehicle
Compound	viability
CCCCOc1ccc(C(=O)CCN2CCCCC2)cc1	102%
Nc1nnc(-c2cccc(Cl)c2Cl)c(N)n1	103%
Cc1cccn2c(=O)c(-c3nnn[nH]3)cnc12	103%

Study 3 — read-out: enzyme activity; mode: inhibitor; concentration: 20 µM; notes: hit confirmation, with DTT
Target: Replicase polyprotein 1ab, main protease (rep, Severe acute respiratory syndrome coronavirus 2, UniProt P0DTD1)
SMILES	inhibition
c1ccc2sc(SNC3CCCCC3)nc2c1	-16.4%
CC(=O)[O][Pt]([NH2])([Cl])([Cl])([NH]C1CCCCC1)[O]C(C)=O	-13.2%
O=c1cc(-c2ccc(O)cc2)oc2cc(O)cc(O)c12	-9.2%
c1ccc2sc(SSc3nc4ccccc4s3)nc2c1	99.2%
COc1nc2ccc(Br)cc2cc1[C@@H](c1ccccc1)[C@@](O)(CCN(C)C)c1cccc2ccccc12	-11.1% and -19.8%

Study 4 — method: RNAcompete; molecule type: RNA; matrix: in vitro; concentration: 20 nM; notes: 7-mer, probes averaged, single round; reference: mean of 7-mers; direction: higher = stronger binding
Target: PABPC1L2, full length, GST fusion (mouse, UniProt A0ABA7IW68)
Construct (chain): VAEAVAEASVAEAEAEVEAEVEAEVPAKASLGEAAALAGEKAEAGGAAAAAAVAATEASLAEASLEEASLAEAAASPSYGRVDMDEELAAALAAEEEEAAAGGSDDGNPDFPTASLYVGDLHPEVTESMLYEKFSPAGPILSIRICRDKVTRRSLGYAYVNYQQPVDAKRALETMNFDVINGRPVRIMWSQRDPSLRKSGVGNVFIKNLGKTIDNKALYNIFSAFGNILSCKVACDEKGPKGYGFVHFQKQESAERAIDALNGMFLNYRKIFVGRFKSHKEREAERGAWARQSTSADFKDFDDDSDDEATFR
Oligonucleotide	7-mer Z-score
AAGUAAG	0.229
AGAGAGA	0.104
UAGCCCC	-0.354
GGAAUGA	0.0152
GCAGUAC	-0.0754
AGUCACG	-0.0428
CUGGCCU	-0.213
GGAGGGA	0.334

Study 5 — mode: inhibitor; concentration: 20 µM
Target: Replicase polyprotein 1ab, nsp13 helicase (rep, Severe acute respiratory syndrome coronavirus 2, UniProt P0DTD1)
SMILES	inhibition
CC(=O)N(CC(O)CO)c1c(I)c(C(=O)NCC(O)CO)c(I)c(C(=O)NCC(O)CO)c1I (mixture of isomers)	-0.96%
Cc1cc(C)c2nc(-c3ccccn3)cc(C(=O)Nc3ccc(S(=O)(=O)Nc4onc(C)c4C)cc3)c2c1	40.8%
Cc1sc(C)c2c1CCC=C2c1cnc[nH]1	2.14%
Clc1ccc2c(c1)N=C(N1CCNCC1)c1ccccc1N2	6.14%
C=CCN1CC[C@]23c4c5ccc(O)c4O[C@H]2[C@@H](OCCOCCOCCOCCOCCOCCOCCOC)CC[C@@]3(O)[C@H]1C5	2.74%
Nc1nc(NCCc2ccc(O)cc2)nc2nc(-c3ccco3)nn12	4.94%
CCOC(=O)C(C)Oc1cccc2c(=O)n(CC(=O)Nc3ccc4c(c3)OCCO4)ccc12 (stereo not drawn)	-0.04%
CCCC(=O)O[C@]1(C(=O)CCl)[C@H](C)C[C@@H]2[C@@H]3CCC4=CC(=O)C=C[C@]4(C)[C@]3(F)C(=O)C[C@@]21C	9.05%
CNc1cc2[nH]c(=O)n(-c3ccc(NC(=O)NS(=O)(=O)c4ccc(Cl)s4)cc3)c(=O)c2cc1F	0.4%
COc1ccc(OC)c([C@@H](O)[C@H](C)N)c1	8.09%
COc1cccc(OC)c1-c1cc(C(=O)NC2(C(=O)O)C3CC4CC(C3)CC2C4)nn1-c1ccnc2cc(Cl)ccc12 (stereo not drawn)	17.8%
OCCOc1ccc(/C(=C(/CCCl)c2ccccc2)c2ccccc2)cc1	4.3%
COc1ccc(-n2nc(C(N)=O)c3c2C(=O)N(c2ccc(N4CCCCC4=O)cc2)CC3)cc1	10.6%
CCOC(=O)[C@H](CCc1ccccc1)N[C@@H](C)C(=O)N1[C@H](C(=O)O)C[C@H]2CCCC[C@@H]21	7.75%
O=[N+]([O-])c1ccc2nc(COCc3nc4ccc([N+](=O)[O-])cc4[nH]3)[nH]c2c1	5.4%
NC(=O)c1ncn([C@@H]2O[C@H](CO)[C@@H](O)[C@H]2O)c1N	5.83%
Nc1ncnc2c1ncn2[C@@H]1O[C@H](COP(=O)(O)OP(=O)(O)OP(=O)(O)OP(=O)(O)OC[C@H]2O[C@@H](n3cnc4c(N)ncnc43)[C@H](O)[C@@H]2O)[C@@H](O)[C@H]1O	1.07%
Nc1nc(=O)[nH]cc1F	-2.21%
O=C(O)c1cn(-c2ccc(F)cc2)c2cc(N3CCNCC3)c(F)cc2c1=O	2.71%
C=CCc1cccc(/C=N/NC(=O)CN2CCN(Cc3ccccc3)CC2)c1O	-0.25%
Cc1cc(C(=O)NOCCO)c(Nc2ccc(I)cc2F)n(C)c1=O	8.56%
O=C(Nc1cnc(Cl)nc1)c1ccc(F)c(F)c1	11.6%
Cc1ccc([N+](=O)[O-])cc1O	1.2%
Cc1ccc(C(C)C)c(OCC2=NCCN2)c1	5.17%
CC[C@@H](CO)NCCN[C@@H](CC)CO	3.55%

Study 6 — method: RNA Bind-n-Seq; molecule type: RNA; matrix: in vitro; concentration: 200 nM; notes: whole 134-nt RNA, ends assumed; together with: 150 mM KCl; reference: input library; direction: higher = stronger binding
Target: Ras GTPase-activating protein-binding protein 1, full length (G3BP1, Homo sapiens, UniProt Q13283)
Chain of UniProt Q13283 (whole entry, looked up): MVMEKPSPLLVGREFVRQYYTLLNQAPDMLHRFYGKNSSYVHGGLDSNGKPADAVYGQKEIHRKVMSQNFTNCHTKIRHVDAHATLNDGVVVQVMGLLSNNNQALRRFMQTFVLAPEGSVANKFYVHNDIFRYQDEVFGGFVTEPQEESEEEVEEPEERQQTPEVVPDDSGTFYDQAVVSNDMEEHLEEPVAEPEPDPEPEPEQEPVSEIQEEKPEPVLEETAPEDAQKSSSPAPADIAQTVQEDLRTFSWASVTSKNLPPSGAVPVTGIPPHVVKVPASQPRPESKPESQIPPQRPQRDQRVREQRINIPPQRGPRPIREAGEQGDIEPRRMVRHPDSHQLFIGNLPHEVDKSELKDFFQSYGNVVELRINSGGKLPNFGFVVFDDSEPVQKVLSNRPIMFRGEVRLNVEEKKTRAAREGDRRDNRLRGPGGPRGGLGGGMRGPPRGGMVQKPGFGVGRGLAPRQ
Shared flanks, not repeated: GGGAGUUCUACAGUCCGACGAUC … UGGAAUUCUCGGGUGUCAAGG
Oligonucleotide	log2 enrichment
UAACUUUAGAGGAGGAUCUGAUGGAUAUGGCAGUGGACGUGGAUUUGGGGAUGGCUAUAAUGGGUAUGGAGGAGGGCCUGGAGGUGGCAA	0.739
GCAGGAAGUAAAAAUAAAUGGAAAUGCUUCGGAUAGUGGCAGGGGUGGGGGUUGCUAAGGAAAGGGUGGGAUGGGAGUGGGUAAAGAGUU	0.638
ACCAUGCAGGUGGGCAUCUUUGGGAAGUGGGGCAAGGGGGGGAUAGGGAGGGGGGUAACACUAAAGGAACAGGUGGUCCCAGGUCGUUUC	1.57
UCCUGUGCUACACAUCGUAUGUACCGAAUCGGGGUUUUUUGGGUUUUUUGGGUUUUUUGGAAAGUAUUAUGUUACGCCGUUCGGAUCUGC	-0.258
AAGUCCUGUGCUACACAUCGUAUGUACCGAAUCGGGGUUUUUGGGGAGGGGAGGGGAAAGUAUUAUGUUACGCCGUUCGGAUCUGCACUU	0.814
AAGUCCUGUGCUACACAUCGUAUGUACCGAAUCGGGUUUGGGUGGGAAAAAAAGGGAAAGUAUUAUGUUACGCCGUUCGGAUCUGCACUU	0.0395
GUCCUGUGCUACACAUCGUAUGUACCGAAUCAAACCCCCAAAUUUUUAAACCCCCAAAAAAGUAUUAUGUUACGCCGUUCGGAUCUGCAC	-0.178
CACAGACAACACGCAGCCACACAGACACAGAGGGAAGGGGUUGGGAUGGGGACAGGGUGCACAGCAGGGCGGGGUAGGACCCCAGCCCCU	1.59

For quick reference, copied from above (study 5):
SMILES	inhibition
O=C(Nc1cnc(Cl)nc1)c1ccc(F)c(F)c1	11.6%
Cc1ccc([N+](=O)[O-])cc1O	1.2%
Cc1ccc(C(C)C)c(OCC2=NCCN2)c1	5.17%
CC[C@@H](CO)NCCN[C@@H](CC)CO	3.55%
